Results of several laboratories.
Parts stem from different laboratories: compare values within a part only. Substitutions count along the parent as printed.
Chain of UniProt Q9SKN5 (whole entry, looked up): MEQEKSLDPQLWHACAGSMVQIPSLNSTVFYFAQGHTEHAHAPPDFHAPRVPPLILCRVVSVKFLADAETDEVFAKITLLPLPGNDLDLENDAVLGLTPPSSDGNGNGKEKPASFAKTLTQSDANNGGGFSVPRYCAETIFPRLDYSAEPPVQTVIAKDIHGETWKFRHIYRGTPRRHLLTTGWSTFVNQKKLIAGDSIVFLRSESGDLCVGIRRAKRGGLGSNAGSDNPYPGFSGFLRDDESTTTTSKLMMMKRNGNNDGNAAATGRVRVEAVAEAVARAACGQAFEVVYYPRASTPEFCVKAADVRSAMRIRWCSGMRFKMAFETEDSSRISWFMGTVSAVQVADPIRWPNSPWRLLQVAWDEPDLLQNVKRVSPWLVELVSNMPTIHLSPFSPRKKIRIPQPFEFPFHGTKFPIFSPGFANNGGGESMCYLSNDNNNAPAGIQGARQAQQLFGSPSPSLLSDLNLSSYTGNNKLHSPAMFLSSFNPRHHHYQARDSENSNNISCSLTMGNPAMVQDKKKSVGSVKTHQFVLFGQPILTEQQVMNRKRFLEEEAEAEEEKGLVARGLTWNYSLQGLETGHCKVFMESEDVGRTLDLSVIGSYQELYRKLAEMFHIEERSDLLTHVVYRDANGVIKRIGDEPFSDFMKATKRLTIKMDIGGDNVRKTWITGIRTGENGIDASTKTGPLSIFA
Chain of UniProt Q9FX25 (whole entry, looked up): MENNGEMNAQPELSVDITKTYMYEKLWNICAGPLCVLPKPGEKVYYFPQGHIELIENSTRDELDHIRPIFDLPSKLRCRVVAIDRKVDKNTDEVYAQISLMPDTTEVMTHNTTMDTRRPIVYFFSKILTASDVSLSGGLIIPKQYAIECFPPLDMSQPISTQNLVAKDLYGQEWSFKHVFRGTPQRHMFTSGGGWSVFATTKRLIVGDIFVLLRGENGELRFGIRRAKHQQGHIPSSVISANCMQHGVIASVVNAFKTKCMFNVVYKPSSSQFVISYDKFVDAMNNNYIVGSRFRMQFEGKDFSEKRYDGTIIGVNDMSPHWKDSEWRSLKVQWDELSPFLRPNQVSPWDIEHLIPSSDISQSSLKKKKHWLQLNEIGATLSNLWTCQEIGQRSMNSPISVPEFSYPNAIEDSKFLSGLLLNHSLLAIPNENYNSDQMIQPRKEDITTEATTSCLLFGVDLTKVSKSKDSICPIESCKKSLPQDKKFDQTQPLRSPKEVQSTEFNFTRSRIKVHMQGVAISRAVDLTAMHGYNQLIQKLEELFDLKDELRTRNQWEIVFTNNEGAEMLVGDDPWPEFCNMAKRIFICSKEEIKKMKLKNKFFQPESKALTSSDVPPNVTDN
Chain of UniProt Q8H174 (whole entry, looked up): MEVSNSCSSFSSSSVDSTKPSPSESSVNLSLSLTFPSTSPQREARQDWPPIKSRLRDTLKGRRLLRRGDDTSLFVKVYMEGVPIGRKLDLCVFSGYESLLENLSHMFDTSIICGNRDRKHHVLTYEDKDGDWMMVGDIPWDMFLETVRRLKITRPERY
Chain of UniProt Q8L7G0 (whole entry, looked up): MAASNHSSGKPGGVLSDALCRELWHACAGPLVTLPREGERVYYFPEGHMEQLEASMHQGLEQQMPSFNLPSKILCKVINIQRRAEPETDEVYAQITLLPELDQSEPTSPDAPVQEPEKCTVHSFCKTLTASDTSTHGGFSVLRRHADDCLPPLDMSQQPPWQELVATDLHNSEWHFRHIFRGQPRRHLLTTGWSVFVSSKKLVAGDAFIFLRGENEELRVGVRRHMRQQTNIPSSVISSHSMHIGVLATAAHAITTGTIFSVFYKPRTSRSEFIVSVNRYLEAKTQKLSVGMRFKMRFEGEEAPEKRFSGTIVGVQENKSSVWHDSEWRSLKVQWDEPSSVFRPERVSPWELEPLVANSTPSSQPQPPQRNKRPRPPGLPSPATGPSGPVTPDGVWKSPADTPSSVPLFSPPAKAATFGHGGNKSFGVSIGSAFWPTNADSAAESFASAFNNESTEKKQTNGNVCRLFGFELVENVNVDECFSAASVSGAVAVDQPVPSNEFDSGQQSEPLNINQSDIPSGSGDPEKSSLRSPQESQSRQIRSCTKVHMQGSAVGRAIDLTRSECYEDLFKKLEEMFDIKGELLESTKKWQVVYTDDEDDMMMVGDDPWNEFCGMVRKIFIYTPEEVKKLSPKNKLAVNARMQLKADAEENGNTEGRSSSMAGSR
Chain of UniProt Q9M1R4 (whole entry, looked up): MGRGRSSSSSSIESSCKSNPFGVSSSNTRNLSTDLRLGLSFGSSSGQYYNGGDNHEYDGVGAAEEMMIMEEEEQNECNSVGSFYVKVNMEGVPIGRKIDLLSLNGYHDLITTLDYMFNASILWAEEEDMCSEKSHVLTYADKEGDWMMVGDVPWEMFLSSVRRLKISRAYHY
Chain of UniProt O23661 (whole entry, looked up): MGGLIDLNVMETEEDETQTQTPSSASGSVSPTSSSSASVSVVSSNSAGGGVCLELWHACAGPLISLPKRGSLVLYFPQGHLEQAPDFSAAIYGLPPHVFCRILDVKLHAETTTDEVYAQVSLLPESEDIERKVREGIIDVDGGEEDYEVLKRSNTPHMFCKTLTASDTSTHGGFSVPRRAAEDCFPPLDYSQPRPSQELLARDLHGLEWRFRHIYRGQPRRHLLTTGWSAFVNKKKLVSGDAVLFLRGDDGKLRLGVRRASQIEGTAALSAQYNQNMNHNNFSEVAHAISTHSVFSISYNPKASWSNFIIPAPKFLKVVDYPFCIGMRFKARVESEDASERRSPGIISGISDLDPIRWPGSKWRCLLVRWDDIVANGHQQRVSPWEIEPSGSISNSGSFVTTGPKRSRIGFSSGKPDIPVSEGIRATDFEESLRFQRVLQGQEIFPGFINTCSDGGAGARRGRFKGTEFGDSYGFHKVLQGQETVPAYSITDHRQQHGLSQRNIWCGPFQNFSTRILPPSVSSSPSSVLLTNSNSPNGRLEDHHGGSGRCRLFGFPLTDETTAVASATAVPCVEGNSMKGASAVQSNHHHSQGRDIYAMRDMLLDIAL
Chain of UniProt Q9LQE8 (whole entry, looked up): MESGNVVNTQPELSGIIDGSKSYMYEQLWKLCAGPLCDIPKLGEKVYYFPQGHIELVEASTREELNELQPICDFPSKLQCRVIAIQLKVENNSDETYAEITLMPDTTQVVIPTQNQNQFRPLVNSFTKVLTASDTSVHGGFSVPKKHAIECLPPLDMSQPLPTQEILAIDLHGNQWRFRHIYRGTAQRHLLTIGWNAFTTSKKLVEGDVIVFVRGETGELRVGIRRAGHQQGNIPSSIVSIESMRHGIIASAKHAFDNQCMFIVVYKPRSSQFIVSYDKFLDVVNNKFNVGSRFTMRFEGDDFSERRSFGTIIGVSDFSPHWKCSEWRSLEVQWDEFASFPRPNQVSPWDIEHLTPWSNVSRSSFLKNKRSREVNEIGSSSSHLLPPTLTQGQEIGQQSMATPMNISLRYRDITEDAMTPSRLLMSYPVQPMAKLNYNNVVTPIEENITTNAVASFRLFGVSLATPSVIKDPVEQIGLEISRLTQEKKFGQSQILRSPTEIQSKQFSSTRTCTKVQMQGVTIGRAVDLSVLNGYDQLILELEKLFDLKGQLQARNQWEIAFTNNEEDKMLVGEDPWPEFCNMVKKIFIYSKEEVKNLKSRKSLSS

Set 1
Sequence: B1 (IAA16)
Technique: two-hybrid
Reading: higher = firmer interaction
Endpoint: positive tests
B1: IAA16 (Arabidopsis thaliana, UniProt O24407); chain MINFEATELRLGLPGGNHGGEMAGKNNGKRGFSETVDLKLNLSSTAMDSVSKVDLENMKEKVVKPPAKAQVVGWPPVRSFRKNVMSGQKPTTGDATEGNDKTSGSSGATSSASACATVAYVKVSMDGAPYLRKIDLKLYKTYQDLSNALSKMFSSFTIGNYGPQGMKDFMNESKLIDLLNGSDYVPTYEDKDGDWMLVGDVPWEMFVDSCKRIRIMKGSEAIGLAPRALEKCKNRS
partner = IAA31 (Arabidopsis thaliana, UniProt Q8H174); baseline = out of 3 tests; result = 3
partner = ARF13 (Arabidopsis thaliana, UniProt Q9FX25); baseline = out of 4 tests; result = 0
partner = ETT (Arabidopsis thaliana, UniProt O23661); baseline = out of 4 tests; result = 0
partner = ARF14 497-605 (Arabidopsis thaliana, UniProt Q9LQE8); baseline = out of 4 tests; result = 0
partner = ARF10 575-693 (Arabidopsis thaliana, UniProt Q9SKN5); baseline = out of 4 tests; result = 0
partner = ARF1 538-665 (Arabidopsis thaliana, UniProt Q8L7G0); baseline = out of 4 tests; result = 0
partner = IAA30 (Arabidopsis thaliana, UniProt Q9M1R4); setting = weak activation fusion; baseline = out of 4 tests; result = 2

Set 2
Target: CCNB2, cyclin fold, Cln2 fusion (human)
Technique: yeast growth competition, sequencing
Medium: yeast
Setting: weak parent motif
Baseline: not given
Reading: higher = stronger binding
Endpoint: normalised enrichment score
Parent: ANKRD17 docking peptide (human); PSVRRQLFVTVVK
Substitution = PSVRRQLFVTVVA [K13A]; result = 0.377
Substitution = PSVRAQAFVTVVK [R5A L7A]; result = 0.377
Substitution = PSVRRALFVTVVK [Q6A]; result = 0.128
Substitution = PSVRKQLFVTVVK [R5K]; result = 0.654
Substitution = PSVRRQLFVTAVK [V11A]; result = 1.16
Substitution = ASVRRQLFVTVVK [P1A]; result = 0.224
Substitution = PSVRRQAFVTVVK [L7A]; result = 1.15
Substitution = PSVRKQLLVTVVK [R5K F8L]; result = 1.32
Substitution = PSVRRQLAVTVVK [F8A]; result = 0.732
Substitution = PSVRAQLFVTVVK [R5A]; result = 0.914

Set 3
Target: RNA binding protein fox-1 homolog 2, RRM domain, GST-SBP tag (RBFOX2, Homo sapiens, UniProt O43251-10, residues 100-194)
Technique: RNA Bind-n-Seq
Form: RNA
Medium: in vitro
Concentration: 365 nM
Setting: natural RNA segment, single round, ends assumed
Baseline: no-protein control
Reading: higher = stronger binding
Endpoint: RBNS enrichment (R)
Constant ends, left off below: GGGAGUUCUACAGUCCGACGAUC … UGGAAUUCUCGGGUGCCAA
Target sequence (chain): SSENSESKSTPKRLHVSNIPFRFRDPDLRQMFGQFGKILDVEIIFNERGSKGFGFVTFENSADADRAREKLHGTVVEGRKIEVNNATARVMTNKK
Sequence = CAAAUGGAGAGGAAGGGGUCCCUGUGGAGGACCCAACCACAGAAUCUGAGGUGUUCAGAAUCUGACCCUCUUGGCAGAGAUCUGUCUGGGAAAUUUAACCAGGCAGUGGA; result = 0.434
Sequence = UUCGCUGUGGCCCUCGGGGUCAGACUGUUCAUUCUCCAGCAUGAUUGUGCCUUUUAAUUAGAGGUCUAGAAAGUUCACCUGAACCCACACCCCCUUCUUCCUGAGAAUUC; result = 8.29
Sequence = CUGCUUCGGGGCCAUGCAGCCCUCCUGCCAGCCCCCUGCCCUUUUCUUGCCCUGUCUCUGAACCUUCAGAACAUUGAUCCUUGCCGCAGCCCCACUAGCCAAGAGAAACA; result = 0.469
Sequence = CAUGAACACGUCUUUGAAGUUGUGGCUGAGAAGAUGAGAGGAAUAUUUAAAUAACAUCAACAGAACAACUUCACUUUGGGCCAAACAUUUGAAAAACUUUUUAUAAAAAA; result = 0.405
Sequence = AGCGGGGCAGCCCAGGAGGUCUCAUACCCCACCCGUAAUCUGUACAGACUGAGAGGCCAGUUGAUCUGCUCUGUUUUAUACCAGUAGCAAUAAAGAUUAUUUUUUGAUAC; result = 0.495
Sequence = UUGACACAGGGGCAGAAGAAACCCCAGAUGUCCCAGAUGUCCCAGAACAUCAGCCCAAAAGACAGAAGAUUUUAUCACUCAUCUACCCCAAAGAUAAAGUUGUAUUUUUU; result = 0.504
Sequence = UUAUUCCUGGGAGGUUGCUUAAAGCUGAAAUAGAACUGAAAUGCAGUUGGUAGACUAGCCAAACAUCUGCUUGCUCUCACUUUGUUUUGGAAGAACCAUGGUAGCUUGUC; result = 0.99
Sequence = GACAGUCUCUGAAUAGUGGUUUUUCUAAUAAGAUGAGAUUUUUUUCUCUUGGGAAGUCACCUGUGAGAUGUCUUCUCCCUCAUCAUCCUGAGCCUUAUCUAAUCCAGGUA; result = 0.235
Sequence = GAGGUGACCACCGGGACCCAAGGUGGGGGGCCCAUAACUGUUUGUCUGCUCAGCCUUGCUGGAGAUUCUGGGUGGCAGGGAUGUCCUGAUGGGACCCUCUGGAGUCCAGC; result = 0.747
Sequence = CAGCAGCAGUCUAAUGCCAAGGUGCUCUAGAAACACUAAUGUUCCUCCAGGGGGGACUCCUCCCCACUCCCUCAGCCCUGGGGCCCCCCUAUCCUAAGACUCGGAAAGGC; result = 0.265
Sequence = UGUACAGUUGUCGAAGUGGAGAAAAUGAGGAUAUAUUCUUGCAGACGAGCUAUAGGUCAUACAUGAAUGUCUAGUGAGACAUUCAAAAUUCGUAUAGGGUGCAGAGUAAU; result = 0.393
Sequence = GGCCCCACGCACCCCAGAACACACAGACCCACCUUUCUGGCGUUCUUUCUACCUCCCUUUUCGUUGCCUGAGGAGCUGGUGGUUUCAUGAGUUAAUGAUACAUCUUGCAA; result = 0.679

Set 4
Target: Transcription factor SOX-2, HMG box (Sox2, Mus musculus, UniProt P48432, residues 41-119)
Chain of UniProt P48432 (41-119, looked up): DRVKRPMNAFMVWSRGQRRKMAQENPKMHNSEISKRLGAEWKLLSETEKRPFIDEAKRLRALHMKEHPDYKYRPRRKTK
Technique: Spec-seq
Form: double-stranded DNA, one strand shown
Medium: in vitro
Concentration: not given
Setting: whole probe, mean of replicates
Baseline: not given
Reading: lower = stronger binding
Endpoint: relative binding energy
Constant ends, left off below: GAGTCGTCTCGTCAGCAC … CCGTAGAGCACTCAGGTC
Sequence = TATCGTT; result = -0.0417 ln ratio
Sequence = CATAGTA; result = -0.803 ln ratio
Sequence = CATTTAT; result = -1.19 ln ratio
Sequence = TAAGGTT; result = 0.223 ln ratio
Sequence = CTTCGTT; result = 0.72 ln ratio
Sequence = CATGTCA; result = 0.519 ln ratio
Sequence = CATATTA; result = -0.157 ln ratio
Sequence = CATATCC; result = 0.594 ln ratio
Sequence = CATTGCA; result = -0.0958 ln ratio
Sequence = ATCGGTT; result = 0.788 ln ratio
Sequence = CATAGTC; result = -0.904 ln ratio
Sequence = TTGGGTT; result = 1.16 ln ratio
Sequence = GGGGGTT; result = 1.71 ln ratio
Sequence = CATGGCC; result = 0.23 ln ratio
Sequence = CATCCGT; result = 1.05 ln ratio
Sequence = CCCGGTT; result = 1.31 ln ratio
Sequence = CATCTGG; result = 0.739 ln ratio
Sequence = CATTTGT; result = -1.49 ln ratio
Sequence = GCAGGTT; result = 1.39 ln ratio
Sequence = CATGCAA; result = 0 ln ratio
Sequence = GATTGTT; result = -2.02 ln ratio

Set 5
Target: ABI1, truncated, D143A, DHFR fusion (Arabidopsis thaliana)
Technique: DHFR PCA, deep sequencing
Medium: yeast
Setting: methotrexate growth selection, single substitutions
Added: (+)-ABA 2500 µM
Baseline: wild-type fitted maximum
Reading: higher = stronger binding
Endpoint: relative binding score
Parent: PYL1, truncated, DHFR fusion (Arabidopsis thaliana); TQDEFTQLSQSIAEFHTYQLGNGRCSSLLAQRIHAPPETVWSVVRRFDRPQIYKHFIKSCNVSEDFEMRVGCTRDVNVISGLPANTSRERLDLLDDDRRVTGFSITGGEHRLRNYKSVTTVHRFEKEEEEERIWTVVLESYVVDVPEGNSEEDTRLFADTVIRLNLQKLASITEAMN; partner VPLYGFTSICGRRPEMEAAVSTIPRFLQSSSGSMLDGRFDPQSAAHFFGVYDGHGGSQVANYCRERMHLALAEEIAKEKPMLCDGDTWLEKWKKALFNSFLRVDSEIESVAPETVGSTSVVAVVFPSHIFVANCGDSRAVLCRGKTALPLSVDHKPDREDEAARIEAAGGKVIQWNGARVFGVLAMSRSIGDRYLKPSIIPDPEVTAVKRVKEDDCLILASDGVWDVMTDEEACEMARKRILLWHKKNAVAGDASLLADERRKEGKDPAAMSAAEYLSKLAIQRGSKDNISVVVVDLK
Substitution = D144V; result = 84.1%
Substitution = K116Y; result = 87.4%
Substitution = N77G; result = 98.6%
Substitution = V62A; result = 94.4%
Substitution = K58I; result = 82.2%
Substitution = V44E; result = 12.8%
Substitution = E128H; result = 95.2%
Substitution = L138I; result = 99.4%
Substitution = F56W; result = 94.3%
Substitution = Q51C; result = 84.7%
Substitution = E109F; result = 92.9%
Substitution = F124I; result = 95.3%
Substitution = E127H; result = 93.3%
Substitution = L82K; result = 5.67%
Substitution = I12V; result = 90.5%
Substitution = N77K; result = 94.8%

Some of these lines once more (set 5):
Substitution = V44E; result = 12.8%
Substitution = E128H; result = 95.2%
Substitution = L138I; result = 99.4%
Substitution = F56W; result = 94.3%
